Measured values of several laboratories.
Numbered parts are unrelated; each lists some results of a single study. Positions count from the first letter of the parent shown.

Block 1
Target: Interferon regulatory factor 3, full length, phosphomimetic (IRF3, Homo sapiens, UniProt Q14653, residues 1-427, S386D/S396D/S398D/S402D/T404D/S405D)
Method: protein-binding microarray
Molecule type: double-stranded DNA, one strand shown
Matrix: in vitro
Tested at: 2540 nM top
Notes: 60-bp whole probe
Together with: salmon DNA 0.4 mg/ml
Reference: random background probes
Direction: higher = stronger binding
All sequences stand within: GCCTAGCAC … GTCTTGATTCGCTTGACGCTGCTG
Residues (chain): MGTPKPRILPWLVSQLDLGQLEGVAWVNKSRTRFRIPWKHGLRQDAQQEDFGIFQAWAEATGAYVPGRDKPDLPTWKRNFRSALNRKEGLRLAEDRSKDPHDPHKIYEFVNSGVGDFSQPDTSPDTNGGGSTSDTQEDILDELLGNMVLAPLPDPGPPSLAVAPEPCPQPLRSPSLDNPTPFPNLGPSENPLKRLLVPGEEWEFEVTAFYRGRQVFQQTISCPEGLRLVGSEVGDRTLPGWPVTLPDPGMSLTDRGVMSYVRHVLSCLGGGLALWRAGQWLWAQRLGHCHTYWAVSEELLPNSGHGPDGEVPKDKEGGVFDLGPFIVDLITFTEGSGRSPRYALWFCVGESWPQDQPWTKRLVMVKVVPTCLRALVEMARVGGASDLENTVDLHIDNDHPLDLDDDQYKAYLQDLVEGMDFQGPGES
Oligonucleotide	fitted relative affinity
GACGTTATCCTTATCCTGACGTGCTAG	3.13 z-score
GACCGTTTCGGTTCCGGGACGTGCTAG	9.63 z-score
TCACTCTGCTCTTTTCAAACTGTGCTA	0.812 z-score
TTAGGTTTCGGTATCGGTGAGTGCTAG	8.56 z-score
GACGATCTCAGTCTCGCGACGTGCTAG	0.659 z-score
GACGGTCTCGGTATCGTGACGTGCTAG	1.35 z-score
TCACATTTCAATTAGAAACTGTGCTAG	1.81 z-score
TTAGAACTGAGTTTCGTTTAGTGCTAG	2.72 z-score
TTAGATTTCAGTAACGATTAGTGCTAG	0.643 z-score
TTAGATATCAGACTGAATTAGTGCTAG	0.276 z-score
TTAGGTTTCCTTTTACTTTAGTGCTAG	10.3 z-score
GACAATATCGGGACTGGAGACGTGCTA	0.144 z-score
GACGAAATGAGACTGGAGACGTGCTAG	-0.0811 z-score
TTAGGTTCTGGTTTCGGTTAGTGCTAG	5.24 z-score
TTAGGACTGCTTTTCTTTTAGTGCTAG	1.29 z-score
TTAGATTTCGGCTTTCGATTAGTGCTA	1.61 z-score
TTAGGTTTCGGGTTTCGATTAGTGCTA	5.7 z-score
GAAGGTATCGGTTTCGGGACGTGCTAG	7.19 z-score
GACGGTTTCGGCCTGGGGACGTGCTAG	3.12 z-score

Block 2
Target: Transcription factor SOX-2, HMG box (Sox2, Mus musculus, UniProt P48432, residues 41-119)
UniProt P48432, sequence (41-119, looked up): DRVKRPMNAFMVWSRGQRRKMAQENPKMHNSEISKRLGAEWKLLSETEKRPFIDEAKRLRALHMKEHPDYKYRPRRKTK
Method: Spec-seq
Molecule type: double-stranded DNA, one strand shown
Matrix: in vitro
Tested at: not given
Notes: whole probe, mean of replicates
Reference: not given
Direction: lower = stronger binding
All sequences stand within: GAGTCGTCTCGTCAGCAC … CCGTAGAGCACTCAGGTC
Oligonucleotide	relative binding energy
CATCAGC	0.671 ln ratio
CATCCTG	0.703 ln ratio
GTAGGTT	1.11 ln ratio
TGCTGTT	0.0622 ln ratio
CATAGAC	-0.759 ln ratio
CTATGTT	-0.347 ln ratio
CATAAAG	-1.15 ln ratio
CTTTGTT	-2.56 ln ratio
TCTTGTT	-1.11 ln ratio
CATTCTC	-1.14 ln ratio
CATTCGC	0.142 ln ratio
CATGGCA	0.148 ln ratio
CTCAGTT	0.224 ln ratio
AAGTGTT	-0.544 ln ratio
ATAAGTT	0.163 ln ratio
CATCACC	1.05 ln ratio
CATATAT	-0.277 ln ratio
TTTGGTT	0.172 ln ratio
CATCATT	0.00402 ln ratio
CATGCTC	0.473 ln ratio

Block 3
Target: JUN, bZIP domain (human)
Method: DHFR protein complementation
Matrix: yeast
Notes: single substitutions, most at no-binding floor
Reference: wild-type JUN-FOS pair
Direction: higher = stronger binding
Parent: JUN, bZIP domain (human); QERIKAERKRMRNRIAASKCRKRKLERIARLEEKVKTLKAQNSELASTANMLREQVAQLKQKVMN; partner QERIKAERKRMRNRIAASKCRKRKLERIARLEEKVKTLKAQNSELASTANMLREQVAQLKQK
Change	binding fitness [natural log]
E33V	-0.693
T37C	-0.209
T37N	-0.167
A29W	-0.499
V35E	-1.1
I28G	-1.01
R30L	-0.205
E54F	-0.843
K39R	-0.186
V56C	-0.716
Q41H	-0.506
L52Y	-0.795
Q58H	-0.262
A29C	-0.553
R30S	-0.137
M51L	-0.178
R30G	-0.336
S47R	-0.0849

Block 4
Target: RNA binding protein fox-1 homolog 2, RRM domain, GST-SBP tag (RBFOX2, Homo sapiens, UniProt O43251-10, residues 100-194)
Method: RNA Bind-n-Seq
Molecule type: RNA
Matrix: in vitro
Tested at: 365 nM
Notes: natural RNA segment, single round, ends assumed
Reference: no-protein control
Direction: higher = stronger binding
All sequences stand within: GGGAGUUCUACAGUCCGACGAUC … UGGAAUUCUCGGGUGCCAA
Residues (chain): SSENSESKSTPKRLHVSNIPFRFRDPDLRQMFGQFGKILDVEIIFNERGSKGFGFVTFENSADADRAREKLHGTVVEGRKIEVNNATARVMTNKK
Oligonucleotide	RBNS enrichment (R)
GGAAAGGAAUUUUGCACUUAGCCAUGGUCGGGUUGGAAGCAAAGCCUUGGGCUUUUCCUGUCCCUAGGUGCUGAGCCCCAAUCCCCCUUUCCUCCUGAGAACUCAUGUUG	0.283
CCGCUGGUCCCUGCUAUCCGAAGUGCCAUGCUUCCAGGAAGGACCAUGGGAAUGGUUUUGAGGACCUGGAUGAGGAAGAAGGCGUGGCAUCCUCCUGGCUUCUUACAGAA	0.302
UUCCCUCCAUCCACCCCUCUGGCACCUGGGUUGGUCUAAUCCUAGUUUGCUGUGGCCUUCCCGGUUGUGAGAGCCUGUGAUCCUUAGAUGUGUCUCCUGUUUCAGACCAG	0.674
AGAUAUUUUUCUGAGAGAUAACUUUAGUUUGCAAUUUGUAAGUGAAACUGAAUCGUGGGUGCAUUUCAGAAGAGAACGUUCCAUAUAAUGCAGCUAACCAAGGACUCCUG	0.763
UCACACCAUUAGGUGAUGCUUUGGACAGAACAGAGUAUUUUCAUCUUGUGUUUAAAGCAAUUCCUUGGCUUCGGCUCCUCACCACUUUCUAUGCCAGUCUCCCAUUUAUG	0.437
UCAGGGUGUGAGUGAGCUCUGCUACUCCCCACCCAGUGCCUGAGGAGCCUGUCAGGUUUUGAGAGCUUGAUUUUAUGGUGGGUUUUGGAUUUAGUUUCCUUUUUCCUUUU	0.514
GACUGUGUGGUUCCAUCUCUGGCCAGGCCACUUCCAGCCAGCAAGGACACCAGAGGCUGCCUUAGCAGAUGGGUCACACUGCUUCCAGCCUUAGCCAGCCAGUGACAAGU	0.297
GUGCCAAAUUUUCCACCCAGUAUAAAUUUAGUAACCCGCUAUGAGCAUAUGUAGGAUAUUCAAUUUGCAGAUACUUUUGUUGGUUAUGUUGGUUUAUAAUAGACAAGUUU	0.487
UGGGAUGCUGUGUCCCAAGGAAUUUCUUUUCACCUCUUGGUUGGGCUGGAGGGAAAAGGAGUGGCUCCUAGAGUCCUGGGGGUCACCCCAGGGCUUUUGCUGACUCUGGG	0.527
UGCUCAGGCGAAUUUCUCAUUUCAAGCCACUGGGGAAACUGAGGCAAAACCAUACUUAGUCAUCACCAACAAGCUGGACUGCUUAGCUGGGCUGUUUUAUCUUCCCUGAG	0.353
AUCCUGCGCCUGCACCUGUCUCAACUCCCACCCUACAGGGAGUGGGCCAUUCCCUGGGACUCUCGCUCCUGCACUGCCAGCCCCUUCUCCUCUCCCCAGGGCCUGGCCCU	0.808
CUGGGUCUCCUCAACUCUGCCCCAGCUUCUCGCAGCACAGGGCCAGGCACCAAGUGCGUAGGCGACGGUAGAUGUUUGCUGAUUGAAUUGAGUCCCCACGGCAUCUCUGG	1.11

Block 5
Target: Sal-like protein 4, full length isoform A (SALL4, Homo sapiens, UniProt Q9UJQ4, residues 1-1053)
UniProt Q9UJQ4, sequence (whole entry, looked up): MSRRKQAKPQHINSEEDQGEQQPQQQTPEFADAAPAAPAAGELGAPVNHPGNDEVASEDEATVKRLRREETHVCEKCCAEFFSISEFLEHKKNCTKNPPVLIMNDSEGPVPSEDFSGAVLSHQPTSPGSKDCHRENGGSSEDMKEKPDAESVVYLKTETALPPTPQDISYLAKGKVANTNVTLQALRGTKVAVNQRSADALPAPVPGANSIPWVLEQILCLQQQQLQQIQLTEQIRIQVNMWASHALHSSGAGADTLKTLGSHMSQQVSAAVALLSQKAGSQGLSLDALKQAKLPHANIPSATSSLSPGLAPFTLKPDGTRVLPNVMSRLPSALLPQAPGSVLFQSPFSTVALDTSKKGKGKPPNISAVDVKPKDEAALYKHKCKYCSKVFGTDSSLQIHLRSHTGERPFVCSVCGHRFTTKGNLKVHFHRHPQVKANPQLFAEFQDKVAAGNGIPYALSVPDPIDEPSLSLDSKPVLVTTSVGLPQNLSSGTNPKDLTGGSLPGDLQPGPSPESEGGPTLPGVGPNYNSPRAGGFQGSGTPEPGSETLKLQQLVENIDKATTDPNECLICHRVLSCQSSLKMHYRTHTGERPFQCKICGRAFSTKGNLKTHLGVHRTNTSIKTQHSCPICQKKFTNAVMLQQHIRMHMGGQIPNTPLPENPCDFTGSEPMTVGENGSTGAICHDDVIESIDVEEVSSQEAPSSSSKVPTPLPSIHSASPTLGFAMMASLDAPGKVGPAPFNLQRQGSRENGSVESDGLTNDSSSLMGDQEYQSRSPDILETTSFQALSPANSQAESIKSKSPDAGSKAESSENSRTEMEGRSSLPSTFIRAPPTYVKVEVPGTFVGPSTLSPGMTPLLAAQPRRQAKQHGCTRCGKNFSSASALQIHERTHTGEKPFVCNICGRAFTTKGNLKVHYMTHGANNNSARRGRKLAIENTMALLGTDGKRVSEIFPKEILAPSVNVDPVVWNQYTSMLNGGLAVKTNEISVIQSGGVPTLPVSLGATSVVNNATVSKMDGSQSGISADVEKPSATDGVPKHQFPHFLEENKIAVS
Method: universal PBM
Molecule type: double-stranded DNA, one strand shown
Matrix: in vitro
Tested at: 600 nM
Notes: 8-mer, flanks averaged, mean of replicates
Direction: higher = stronger binding
Oligonucleotide	E-score
CCCACGCA	-0.0931
ATACTGAG	0.126
GAACTGTA	0.218
ACCGCTTG	-0.101
AGTGCCTA	0.0177
AGTGACAA	0.13
AGTCTAAG	0.147
AAGGTGGA	-0.112
GACCGAGC	-0.29
CTTCCCTA	0.0258
CCAGAGAA	0.0219
ACGACAGA	-0.0627
TGTTGCAA	0.152
CTCTCGGC	-0.311
CCCATCCC	-0.225
TCCTAGCA	-0.0353
CAGGCTGA	-0.215
CACTCCTG	-0.0884
AAATCTTC	0.14
CGAGCGAC	-0.13

Block 6
Target: ABI1, truncated, D143A, DHFR fusion (Arabidopsis thaliana)
Method: DHFR PCA, deep sequencing
Matrix: yeast
Notes: methotrexate growth selection, single substitutions
Together with: (+)-ABA 0 µM
Reference: wild-type fitted maximum
Direction: higher = stronger binding
Parent: PYL1, truncated, DHFR fusion (Arabidopsis thaliana); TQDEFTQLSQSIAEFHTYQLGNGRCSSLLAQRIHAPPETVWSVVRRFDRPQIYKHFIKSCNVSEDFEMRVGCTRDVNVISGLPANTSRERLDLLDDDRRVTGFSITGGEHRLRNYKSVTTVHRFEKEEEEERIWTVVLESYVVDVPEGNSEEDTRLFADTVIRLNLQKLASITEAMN
Change	relative binding score [%]
G81M	9.27
D144R	-1.08
R88A	2.66
Q51W	8.28
E38L	1.26
T101Q	-7.47
T160M	1.7
T73P	1.35
I133C	45.6
A13K	33.3
E151D	4.1
Y18R	1.57
L156Y	-8.76
L28G	1.84
F5M	40.1

Some of these lines once more (block 6):
Change	relative binding score [%]
Y18R	1.57
L156Y	-8.76
R88A	2.66
E38L	1.26
I133C	45.6
T101Q	-7.47
